Results pooled from the literature.
Lines come from different studies, so protocols differ. ± gives the spread as reported.
APP: Amyloid-beta precursor protein (APP, Homo sapiens, UniProt P05067)
lasR: Transcriptional activator protein LasR (lasR, Pseudomonas aeruginosa, UniProt P25084)

With `Cc1ccc(-c2nc3ccc(/N=N/c4ccc(Br)cc4)cc3c(-c3ccccc3)c2I)cc1` the inhibition was 59% (APP; amyloid aggregation, inhibitor, fluorescence; 25 µM).
`O=C(NC1CCN(c2ncnc3[nH]cnc23)CC1)c1cccc(NS(=O)(=O)c2ccc(C(F)(F)F)cc2)c1`: inhibition “inactive” (N6-adenosine-methyltransferase catalytic subunit, with METTL14 (METTL3, Homo sapiens, UniProt Q86U44); enzyme activity, inhibitor; concentration not given).
`CCCCCc1cn(-c2ccc(C(=O)N[C@H]3CCOC3=O)cc2)nn1` has an inhibition of 44% (lasR; reporter gene, antagonist; 10 µM, together with: OdDHL 10 nM).
The inhibition of `COC1CC(=O)N(C)C=CCCCC(=O)N(C)C(C(C)C)C(=O)N(C)C(CC(C)C)C(=O)OC(C(C)C)CC(C)C1` (centres unmarked) is reported as greater than 70% (Neuropeptide S receptor, isoform B (NPSR1, Homo sapiens, UniProt Q6W5P4); β-arrestin recruitment, antagonist; 20 µM).
`O=C(Cn1cc(CC2CCCCC2)nn1)N[C@H]1CCOC1=O` gave an inhibition of 14% (lasR; reporter gene, antagonist; 100 µM, together with: OdDHL 10 nM).
`CCOC(=O)/C=C/c1c(-c2ccc(C)cc2)nc2ccc(/N=N/c3ccc([N+](=O)[O-])cc3)cc2c1-c1ccccc1` gave an inhibition of 77.2 ± 2.5% (APP; fibril formation, ThT fluorescence; PBS; concentration not given, 24 h, 37 °C, together with: Aβ42 25 µM).
The inhibition of `CC(=O)NC(Cc1ccc(Br)c(Cl)c1)C(=O)N[C@@H](C)C(=O)N1CCC[C@H]1C(=O)N1CCC[C@H]1C(=O)N[C@@H](CCC(=O)O)C(=O)N[C@@H](Cc1c[nH]cn1)C(=O)N[C@@H](CO)C(=O)N[C@H](C(=O)N[C@@H](C)C(N)=O)[C@@H](C)OP(=O)(O)O` (some centres unmarked) is reported as 0.31% (Casein kinase II subunit alpha (CSNK2A1, Homo sapiens, UniProt P68400); enzyme activity, inhibitor; 10 µM).
`O=C(N[C@H]1CCOC1=O)c1ccc(-n2cc(C3CCCC3)nn2)cc1` gave an inhibition of 21% (lasR; reporter gene, antagonist; 10 µM, together with: OdDHL 10 nM).
`Clc1ccccc1C(c1ccccc1)(c1ccccc1)n1cccn1` — result for inhibition: “inhibited” (Intermediate conductance calcium-activated potassium channel protein 4 (Kcnn4, Mus musculus, UniProt O89109); Ca2+-activated K+ current, inhibitor, whole-cell patch-clamp; acutely isolated microglia, 10-month-old 5xFAD mice; 1 µM, together with: 1 µM free Ca2+).
`C=C(C)[C@@H]1CCC(CO)=C[C@H]1c1c(O)cc(CCCCC)cc1O` has an inhibition of 40% (UDP-glucuronosyltransferase 1A9 (UGT1A9, Homo sapiens, UniProt O60656); inhibitor; HEK293 overexpressing UGT1A9, recombinant UGT1A9 microsomes; 100 µM, together with: propofol glucuronidation; baseline: no-inhibitor control).
For `COC(=O)[C@@H]1CCCN1C(=O)[C@@H](O)[C@H](N)CC(C)C`, inhibition read “no inhibition” (bestatin-sensitive aminopeptidases; enzyme activity, inhibitor, AMC substrate; concentration not given).

Repeated from above:
`O=C(N[C@H]1CCOC1=O)c1ccc(-n2cc(C3CCCC3)nn2)cc1` gave an inhibition of 21% (lasR; reporter gene, antagonist; 10 µM, together with: OdDHL 10 nM).
